Measurements collected from several papers.
Each line is one published result; not all experiments were run side by side. Values joined by “and” are separate records of one study, mostly repeats; a detail may differ. ± marks the error that the study gave.
UniProt P10632, sequence (whole entry, looked up): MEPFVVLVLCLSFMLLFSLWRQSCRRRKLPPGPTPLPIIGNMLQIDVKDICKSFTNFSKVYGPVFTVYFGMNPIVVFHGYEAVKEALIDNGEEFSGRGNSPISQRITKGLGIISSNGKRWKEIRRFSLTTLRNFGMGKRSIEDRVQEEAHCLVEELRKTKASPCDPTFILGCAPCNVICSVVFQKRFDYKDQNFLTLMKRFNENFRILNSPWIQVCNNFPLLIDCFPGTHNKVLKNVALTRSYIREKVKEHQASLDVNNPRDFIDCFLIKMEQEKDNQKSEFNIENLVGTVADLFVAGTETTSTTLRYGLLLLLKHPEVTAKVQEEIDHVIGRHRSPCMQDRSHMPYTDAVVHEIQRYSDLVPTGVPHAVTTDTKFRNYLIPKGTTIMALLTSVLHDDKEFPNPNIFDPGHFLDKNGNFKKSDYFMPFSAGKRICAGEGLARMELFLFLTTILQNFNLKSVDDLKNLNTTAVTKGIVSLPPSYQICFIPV

Structure (SMILES) | target or system | test | test system | setting | how to read | quantity | value
CCc1c(-c2ccc3[nH]ncc3c2)cnc(N)c1-c1ccc(O)cc1 | CHP-212 resistant sublines (heterozygous USP7 V517F) | cell viability |  | 25 µM |  | viability | 43.4% and 52.8%
CC(C)Cc1ccc(C(C)C(=O)N[C@@H](CCCCNC(=O)CCOCCOCCOCCOCCOCCOCCNC(=O)CN2CCN(CC(=O)[O-])CCN(CC(=O)[O-])CCN(CC(=O)[O-])CC2)C(=O)Nc2cccc3c(C(=O)NCC(=O)N4CC(F)(F)C[C@H]4C#N)ccnc23)cc1.[177Lu+3] (some centres unmarked) | U-87 MG tumour model |  | host not given, heart | 1 h, tumour-bearing |  | tracer uptake | 4.08 %ID/g
O=C(Oc1cc(OC(=O)c2cc(O)c(O)c(O)c2)c2ccccc2c1)c1cc(O)c(O)c(O)c1 | HSV-2 strain 333 | viral DNA replication, qPCR | Vero |  | reference: CC50 over IC50 | therapeutic index | 24.2
CNC(=O)C1CCCN(C(=O)C2CC3CCC2N3C(=O)[C@@H]2C[C@@H](O)CN2C(=O)NCc2cccc(Cl)c2F)C1 (mixture of isomers) | Cytochrome P450 2C8 (CYP2C8, Homo sapiens, UniProt P10632) | preincubation with NADPH | human | 0.617 µM | reference: negative control | remaining activity | 97.2% and 82.7% and 77.4%
O=C1C2CC3CC1CC(C(=O)N1CCN(c4ccc([N+](=O)[O-])c5ncccc45)CC1)(C3)C2 | Salmonella typhimurium | Ames test | TA97a | 0.78 µg/well, without S9 | reference: vehicle | revertant fold increase | 1.2
N#C[C@@H]1CC(F)(F)CN1C(=O)CNC(=O)c1ccnc2c(NC(=O)[C@@H](N)CCCCNC(=O)CCOCCOCCOCCOCCOCCOCCNC(=O)CN3CCN(CC(=O)[O-])CCN(CC(=O)[O-])CCN(CC(=O)[O-])CC3)cccc12.[177Lu+3] | U-87 MG tumour model |  | host not given, bone | 48 h, tumour-bearing |  | tracer uptake | 0.28 %ID/g
N#C[C@@H]1CCCN1C(=O)CNC(=O)c1ccnc2ccc(OCCCN3CCN(C(=O)CCc4ccc5c(c4)CN4CCN(Cc6cc(CCC(=O)O)ccc6O)CC(=O)[O][Al-]([18F])([O]C(=O)C4)[O]5)CC3)cc12 (some centres unmarked) | U-87 MG tumour model |  | host not given, blood | 2 h, tumour-bearing |  | tracer uptake | 1.14 %ID/g
COc1cccc(OC)c1-c1cc(C(=O)NC2(C(=O)O)C3CC4CC(C3)CC2C4)nn1-c1ccc(C(=O)N(C)CCOCCOCCN(C)C(=O)[C@H](CCCCNC(=O)[C@H](CC(C)C)NC(=O)C2OC2C(=O)O)NC(=O)CN2CCN(CC(=O)[O-])CCN(CC(=O)[O-])CCN(CC(=O)[O-])CC2)cc1C(C)C.[177Lu+3] (mixture of isomers) | HT-29 tumour model |  | host not given, bone | 24 h, tumour-bearing |  | tracer uptake | 0.8 %ID/g
COC(=O)Nc1nc2cc(C(O)c3ccc(F)cc3)ccc2[nH]1 (centres unmarked) | Salmonella typhimurium | Ames preincubation test | TA98 | 875.0 µg per plate, 3 days, without S9, precipitation |  | revertants | 28.7 revertants per plate
N#C[C@@H]1CC(F)(F)CN1C(=O)CNC(=O)c1ccnc2c(NC(=O)[C@H](CCCCNC(=O)CCOCCOCCOCCOCCOCCOCCNC(=O)CN3CCN(CC(=O)[O-])CCN(CC(=O)[O-])CCN(CC(=O)[O-])CC3)NC(=O)CCCc3ccc(I)cc3)cccc12.[177Lu+3] | U-87 MG tumour model |  | host not given, bone | 1 h, tumour-bearing |  | tracer uptake | 6.69 %ID/g
CN(C)c1ccc2c(c1)[Si](C)(C)c1cc(N(C)C)ccc1C21OC(=O)c2cc(C(=O)O)ccc21 | Albumin (ALB, Homo sapiens, UniProt P02768) | binding, fluorescence titration | PBS |  |  | Kd | 34 ± 3 µM
CC(C)OCCOCc1ccc(OCC(O)CN(N=O)C(C)C)cc1 (centres unmarked) | Escherichia coli | Ames test | WP2 uvrA | 15.8 µg/plate, 30 % rat S9 | reference: solvent control | revertant fold increase | 0.9 fold
Cc1nc(Nc2ncc(C(=O)Nc3c(C)cccc3Cl)s2)cc(N2CCN(C(=O)CCOCCNC(=O)CN)CC2)n1 | K562 | cell growth or viability, CCK-8 |  | 10 nM |  | viability | 59% and 62%
C=C(NC(=O)c1csc(-c2nc3c(cc2O)-c2nc(cs2)C(=O)NC(C(C)O)C(=O)NC(=C(C)OC)c2nc(cs2)C(=O)NC2c4nc(cs4)C(=O)NC(COC(=O)c4c5c6c(cccc6n4O)COC(=O)C(OC4CC(C)(O)C(N(C)C)C(C)O4)C2OC5)c2nc-3cs2)n1)C(N)=O (centres unmarked) |  |  | ICR mice, Streptococcus pneumoniae ATCC 49169 infected, immunocompromised, blood | intravenous, 16 mg/kg/day once daily |  | Cmax | 708 ng/mL
COc1cccc(OC)c1-c1cc(C(=O)NC2(C(=O)O)C3CC4CC(C3)CC2C4)nn1-c1ccc(C(=O)N(C)CCOCCN(C)C(=O)[C@H](CCCCNC(=O)[C@H](CC(C)C)NC(=O)C2OC2C(=O)O)NC(=O)CN2CCN(CC(=O)[O-])CCN(CC(=O)[O-])CCN(CC(=O)[O-])CC2)cc1C(C)C.[177Lu+3] (mixture of isomers) | HT-29 tumour model |  | host not given, bone | 4 h, tumour-bearing |  | tracer uptake | 0.61 %ID/g
O=C1NC2(CC2)COc2ncc(F)cc2[C@H]2COCCN2c2ccn3ncc1c3n2 | Salmonella typhimurium | Ames test | TA1535 | 50 µg/plate, 48 h, together with: without S9 |  | revertant colonies | 6 ± 1 revertants/plate
O=C(Nc1cnccc1-c1ccc([18F])cc1)c1ccnc(NC(=O)C2CC2)c1 |  |  | FVB/NJ mouse, both sexes, brain | intravenous, 1 min post-injection, together with: P-gp inhibitor tariquidar 15 mg/kg iv |  | SUV | 1.17 ± 0.5
O=C(OC[C@@]1(O)C(=O)C=C[C@H]2[C@@H]1[C@H]1C=C[C@@H]2C(=O)[C@]1(O)COC(=O)c1ccccc1)c1ccccc1 | K562 | cell growth or viability, MTT |  | 12.5 µg/mL |  | viability | 86.9%
Cc1nc(N)nc2c1C(=O)N[C@@H](c1ccc(F)cc1-c1cccc(O[11CH3])n1)C2 |  | ex vivo biodistribution | mouse, U87 subcutaneous xenograft, red blood cells | 60 min, vehicle pretreatment baseline |  | SUV | 0.7 ± 0.02
CCN(CC)CC#CCNc1ccnc2cc(Cl)ccc12 | Salmonella typhimurium | mini-Ames test | TA98 | 500.0 µg/well, without S9 |  | revertants per well | 10

A few entries again:
Structure (SMILES) | target or system | test | test system | setting | how to read | quantity | value
COC(=O)Nc1nc2cc(C(O)c3ccc(F)cc3)ccc2[nH]1 (centres unmarked) | Salmonella typhimurium | Ames preincubation test | TA98 | 875.0 µg per plate, 3 days, without S9, precipitation |  | revertants | 28.7 revertants per plate
N#C[C@@H]1CC(F)(F)CN1C(=O)CNC(=O)c1ccnc2c(NC(=O)[C@H](CCCCNC(=O)CCOCCOCCOCCOCCOCCOCCNC(=O)CN3CCN(CC(=O)[O-])CCN(CC(=O)[O-])CCN(CC(=O)[O-])CC3)NC(=O)CCCc3ccc(I)cc3)cccc12.[177Lu+3] | U-87 MG tumour model |  | host not given, bone | 1 h, tumour-bearing |  | tracer uptake | 6.69 %ID/g
